{"data": "Published values pooled from the literature", "note": "Parts stem from different laboratories: compare values within a part only. Positions count from the first letter of the parent shown."}
{"data": "Set 1", "target": "CCNB2, cyclin fold, Cln2 fusion (human)", "technique": "yeast growth competition, sequencing", "sample": "yeast", "notes": "weak parent motif", "reference": "not given", "direction": "higher = stronger binding", "starting sequence": "INSM1 docking peptide (human); PKAIRKLHFEDEV; partner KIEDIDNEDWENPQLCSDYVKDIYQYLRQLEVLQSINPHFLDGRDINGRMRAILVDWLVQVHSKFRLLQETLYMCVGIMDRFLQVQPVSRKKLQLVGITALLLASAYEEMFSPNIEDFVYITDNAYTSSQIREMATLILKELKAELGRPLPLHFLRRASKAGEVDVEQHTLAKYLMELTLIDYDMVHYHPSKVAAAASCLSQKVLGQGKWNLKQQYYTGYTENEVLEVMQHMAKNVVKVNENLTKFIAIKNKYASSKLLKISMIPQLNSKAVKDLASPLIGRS"}
{"Change": "PKAIRKLHFETEV [D11T]", "normalised enrichment score": -0.559}
{"Change": "PKAIRKNHFEDEV [L7N]", "normalised enrichment score": 0.0128}
{"Change": "PKAIRKLHFEDSV [E12S]", "normalised enrichment score": 0.302}
{"Change": "PKAIRWLHFEDEV [K6W]", "normalised enrichment score": 0.0465}
{"Change": "PKAIRKLHEEDEV [F9E]", "normalised enrichment score": 0.127}
{"Change": "PKAIRKLHFEDYV [E12Y]", "normalised enrichment score": -0.0525}
{"Change": "PKAIRKEHFEDEV [L7E]", "normalised enrichment score": -0.106}
{"Change": "PKMIRKLHFEDEV [A3M]", "normalised enrichment score": 0.61}
{"Change": "PKAPRKLHFEDEV [I4P]", "normalised enrichment score": 0.476}
{"Change": "PKAIRKLHFFDEV [E10F]", "normalised enrichment score": 0.161}
{"Change": "PKVIRKLHFEDEV [A3V]", "normalised enrichment score": 1.68}
{"Change": "PKAIKKLHFEDEV [R5K]", "normalised enrichment score": 0.141}
{"Change": "PKAIRKLHFEFEV [D11F]", "normalised enrichment score": 0.39}
{"Change": "PKAIRKLHFEQEV [D11Q]", "normalised enrichment score": 0.332}
{"data": "Set 2", "target": "Sal-like protein 4, full length isoform A (SALL4, Homo sapiens, UniProt Q9UJQ4, residues 1-1053)", "technique": "universal PBM", "molecule type": "double-stranded DNA, one strand shown", "sample": "in vitro", "tested at": "600 nM", "notes": "8-mer, flanks averaged, mean of replicates", "direction": "higher = stronger binding", "chain of UniProt Q9UJQ4 (whole entry, looked up)": "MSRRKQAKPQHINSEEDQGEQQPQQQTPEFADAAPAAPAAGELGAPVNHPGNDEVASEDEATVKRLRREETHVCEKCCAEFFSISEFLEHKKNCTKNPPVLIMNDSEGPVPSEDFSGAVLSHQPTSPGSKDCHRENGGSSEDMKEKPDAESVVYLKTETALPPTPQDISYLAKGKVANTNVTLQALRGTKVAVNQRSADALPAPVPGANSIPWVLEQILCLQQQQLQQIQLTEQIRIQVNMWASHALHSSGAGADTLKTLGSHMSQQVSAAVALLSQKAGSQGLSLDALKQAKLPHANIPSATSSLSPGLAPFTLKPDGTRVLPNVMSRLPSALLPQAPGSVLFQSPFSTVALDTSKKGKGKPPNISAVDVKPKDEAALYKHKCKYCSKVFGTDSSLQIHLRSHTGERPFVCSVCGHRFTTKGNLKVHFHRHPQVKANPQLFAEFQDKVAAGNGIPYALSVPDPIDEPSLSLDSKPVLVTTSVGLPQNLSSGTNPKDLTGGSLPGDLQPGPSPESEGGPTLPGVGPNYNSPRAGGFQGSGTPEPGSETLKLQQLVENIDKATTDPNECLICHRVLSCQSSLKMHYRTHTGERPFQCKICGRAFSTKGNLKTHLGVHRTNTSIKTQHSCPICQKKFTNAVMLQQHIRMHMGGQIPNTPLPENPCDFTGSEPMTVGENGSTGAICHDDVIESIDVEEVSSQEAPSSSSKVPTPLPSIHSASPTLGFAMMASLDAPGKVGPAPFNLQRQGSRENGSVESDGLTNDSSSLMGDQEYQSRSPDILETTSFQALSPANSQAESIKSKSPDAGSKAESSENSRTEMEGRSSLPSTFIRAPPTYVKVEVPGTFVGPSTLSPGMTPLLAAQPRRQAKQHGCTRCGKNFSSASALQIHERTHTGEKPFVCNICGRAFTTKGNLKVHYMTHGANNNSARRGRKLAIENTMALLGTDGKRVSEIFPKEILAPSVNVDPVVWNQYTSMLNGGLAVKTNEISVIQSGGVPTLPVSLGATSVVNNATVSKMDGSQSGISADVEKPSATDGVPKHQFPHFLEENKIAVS"}
{"Sequence": "GCATTAGC", "E-score": -0.0533}
{"Sequence": "CCCTTCCC", "E-score": -0.267}
{"Sequence": "AATACAGC", "E-score": 0.026}
{"Sequence": "CCCGAAGA", "E-score": -0.175}
{"Sequence": "CTTCCCAC", "E-score": -0.111}
{"Sequence": "AACCCACA", "E-score": 0.0895}
{"Sequence": "GCAGAGGC", "E-score": -0.168}
{"Sequence": "CATTAGTC", "E-score": -0.00266}
{"Sequence": "AAAGGCTT", "E-score": 0.00447}
{"data": "Set 3", "target": "Fragile X messenger ribonucleoprotein 1, C-terminal low-complexity region (Fmr1, Mus musculus, UniProt P35922)", "technique": "RNA Bind-n-Seq", "molecule type": "RNA", "sample": "in vitro", "tested at": "200 nM", "notes": "whole 134-nt RNA, ends assumed", "added": "150 mM LiCl", "reference": "input library", "direction": "higher = stronger binding", "all molecules": "7-deaza-guanosine replaces G", "all sequences stand within": "GGGAGUUCUACAGUCCGACGAUC … UGGAAUUCUCGGGUGUCAAGG"}
{"Sequence": "AAGUCCUGUGCUACACAUCGUAUGUACCGAAUCGGAAAAAGGGAAAAAGGAAAAAGGAAAGUAUUAUGUUACGCCGUUCGGAUCUGCACU", "log2 enrichment": -0.865}
{"Sequence": "GUCCUGUGCUACACAUCGUAUGUACCGAAUCAAAUUUAAAUUUUUUUAAACCCCCAAAAAAGUAUUAUGUUACGCCGUUCGGAUCUGCAC", "log2 enrichment": -0.0506}
{"Sequence": "CUCAAGUCCUGUGCUACACAUCGUAUGUACCGAAUCGGAAAAAGGUGGAAAGGAAAGUAUUAUGUUACGCCGUUCGGAUCUGCACUUCCA", "log2 enrichment": 0.0528}
{"Sequence": "AGUCCUGUGCUACACAUCGUAUGUACCGAAUCGGGUUUGGGAAAGGGUUUUUUUGGGAAAGUAUUAUGUUACGCCGUUCGGAUCUGCACU", "log2 enrichment": -1.78}
{"Sequence": "UAACUUUAGAGGAGGAUCUGAUGGAUAUGGCAGUGGGCGUGGAUUUGGGGAUGGCUAUAAUGGGUAUGGAGGAGGACCUGGAGGUGGCAA", "log2 enrichment": 0.55}
{"Sequence": "GCAGGAAGUAAAAACAAAUGGAAAUGCUUCGGAUAGUGGCAGGGGUGGGGGUUGCUAAGGAAAGGGAAAGAUGGGAGUGGGUAAAGAGUU", "log2 enrichment": 1.62}
{"Sequence": "ACCAUGCAGGUGGGCAUCUUUGGGAAGUGGGGCAAGGGGGGGAUAGGGAGGCGGGUAACACUUUGGGAACAGGUGGUCCCAGGUCGUUUC", "log2 enrichment": 0.752}
{"Sequence": "GUCCUGUGCUACACAUCGUAUGUACCGAAUCAAACCCAAACCCCCCCAAAUUUUUAAAAAAGUAUUAUGUUACGCCGUUCGGAUCUGCAC", "log2 enrichment": 1.67}
{"data": "Further values, each from its own experiment"}
{"Substance": "PhoQ, residues 284 288 289 292 302 303 SSYNSA", "target": "PhoP, residues 12 14 15 18 19 NMSSL (Escherichia coli, UniProt P23836)", "test": "Sort-seq, measured: YFP reporter", "system": "E. coli", "setting": "PhoQ-PhoP variant library, added: 10 µM Mg2+", "scale": "reference: high Mg2+ state, higher = stronger signaling", "quantity": "fold induction", "result": 9.05}
